Measured values pooled from the literature.
Compare with care: the assays were run in different laboratories.
Organism: Staphylococcus aureus

`CCCSC1COC(=O)N1/N=C/c1ccc([N+](=O)[O-])o1` (stereo not drawn) gave an MIC of 12.5 µg/mL (microbial growth, broth dilution; ATCC29213; 18 h).
The MIC of `C[n+]1ccc(/C=C2\Sc3ccccc3N2CCCN2CCCC2)c2ccccc21` is reported as 4 µg/mL (microbial growth, broth dilution; ATCCBAA41 MRSA).
`Oc1c(Br)cc(Br)c2nc3cc(SC(F)(F)F)ccc3nc12` gave an MIC of 0.04 µM (broth microdilution; MRSA 1707; 16 h, 37 °C).
The MIC of `CCCCc1ccc(N2C(=O)/C(=N\NC(=N)N)c3ccccc32)cc1` is reported as 6 µg/mL (microbial growth, broth dilution; 18 h).
`CNC(CC(C)C)C(=O)NC1C(=O)NC(CC(N)=O)C(=O)NC2C(=O)NC3C(=O)NC(C(=O)NC(C(=O)O)c4cc(O)cc(O)c4-c4cc3ccc4O)C(O)c3ccc(c(Cl)c3)Oc3cc2cc(c3OC2OC(CO)C(O)C(O)C2OC2CC(C)(NC(=O)CCCCCCCCC[N+]3(C)CCOCC3)C(O)C(C)O2)Oc2ccc(cc2Cl)C1O` (stereo not drawn) has an MIC of 64 µg/mL (agar dilution; MRSA clinical isolate MRSA3).
For `CN(C)c1cc(CNCc2ccncc2)c(O)c2c1C[C@H]1C[C@H]3[C@H](N(C)C)C(O)=C(C(N)=O)C(=O)[C@@]3(O)C(O)=C1C2=O`, the MIC was 2 µg/mL (microbial growth, broth dilution).
With `Cc1cc([N+](=O)[O-])ccc1NC(=O)CSc1nc2ccccc2c(=O)n1-c1ccc(S(N)(=O)=O)cc1` the MIC was 5 µg/mL (MRSA; 24 h, 37 °C).
For `Cc1ccc(NC(=O)C2C(=O)C(c3ccccc3)c3ccc4c(c32)C(=O)c2ccccc2C4=O)cc1` (stereo not drawn), the MIC was 64 µg/mL (microbial growth).
For `CCn1cc(C(=O)NCCNCCO)c(=O)c2cc(OC)c(OCc3cccc(F)c3)cc21`, the MIC was greater than 32 µg/mL (ATCC 43300 MRSA; ≥80% growth inhibition).
`CN(Cc1cc(N(C)C)c2c(c1O)C(=O)C1=C(O)[C@]3(O)C(=O)C(C(N)=O)=C(O)[C@@H](N(C)C)[C@@H]3C[C@@H]1C2)CC(C)(C)C` gave an MIC of 1 µg/mL (microbial growth; MRSA).
The MIC of `CCn1[c]([Au-][Cl])[n+](CC)c2ccc(C(=O)OC)cc21` is reported as 2.2 µM (broth dilution; MRSA DSM 11822; 20 h, 37 °C).
For `CCCCO[C@H]1[C@H](O)[C@@H](N)[C@@H](O[C@H]2[C@H](O[C@@H]3O[C@H](CO)[C@@H](O[C@H]4O[C@@H](CN)[C@@H](O)[C@H](O)[C@H]4N)[C@H]3O)[C@@H](O)[C@H](N)C[C@@H]2N)O[C@@H]1CO`, the MIC was 16 µg/mL (broth microdilution; MRSA isolate AG 044).
`CN(C)c1cc(CN2CCc3ccccc3C2)c(O)c2c1C[C@H]1C[C@H]3[C@H](N(C)C)C(O)=C(C(N)=O)C(=O)[C@@]3(O)C(O)=C1C2=O` has an MIC of 0.5 µg/mL (microbial growth, broth dilution).
For `CCCCN(CCCC)CC(O)COc1c2ccoc2c(OC)c2oc(CC)cc(=O)c12` (stereo not drawn), the MIC was 256 µg/mL (microbial growth, broth dilution; ATCC29; 19 h).
With `CC[C@H](C)[C@H](N)C1=N[C@H](C(=O)N[C@@H](CC(C)C)C(=O)N[C@H](CCC(=O)O)C(=O)N[C@H](C(=O)N[C@H]2CCCCNC(=O)[C@H](CC(N)=O)NC(=O)[C@@H](CC(=O)O)NC(=O)[C@H](Cc3c[nH]cn3)NC(=O)[C@@H](Cc3ccccc3)NC(=O)[C@H]([C@@H](C)CC)NC(=O)[C@@H](CCCN)NC2=O)[C@@H](C)CC)CS1` the MIC was 2 µg/mL (ATCC 29213 MSSA, LB broth; 18 h, 37 °C, with: 0.3 mM ZnSO4).

Excerpt of the above:
With `CC[C@H](C)[C@H](N)C1=N[C@H](C(=O)N[C@@H](CC(C)C)C(=O)N[C@H](CCC(=O)O)C(=O)N[C@H](C(=O)N[C@H]2CCCCNC(=O)[C@H](CC(N)=O)NC(=O)[C@@H](CC(=O)O)NC(=O)[C@H](Cc3c[nH]cn3)NC(=O)[C@@H](Cc3ccccc3)NC(=O)[C@H]([C@@H](C)CC)NC(=O)[C@@H](CCCN)NC2=O)[C@@H](C)CC)CS1` the MIC was 2 µg/mL (ATCC 29213 MSSA, LB broth; 18 h, 37 °C, with: 0.3 mM ZnSO4).
